Measured values of several laboratories.
Each numbered part is a random draw from the data of one study; scales do not carry over between parts. Substitutions count along the parent as printed.
Chain of UniProt Q01959 (whole entry, looked up): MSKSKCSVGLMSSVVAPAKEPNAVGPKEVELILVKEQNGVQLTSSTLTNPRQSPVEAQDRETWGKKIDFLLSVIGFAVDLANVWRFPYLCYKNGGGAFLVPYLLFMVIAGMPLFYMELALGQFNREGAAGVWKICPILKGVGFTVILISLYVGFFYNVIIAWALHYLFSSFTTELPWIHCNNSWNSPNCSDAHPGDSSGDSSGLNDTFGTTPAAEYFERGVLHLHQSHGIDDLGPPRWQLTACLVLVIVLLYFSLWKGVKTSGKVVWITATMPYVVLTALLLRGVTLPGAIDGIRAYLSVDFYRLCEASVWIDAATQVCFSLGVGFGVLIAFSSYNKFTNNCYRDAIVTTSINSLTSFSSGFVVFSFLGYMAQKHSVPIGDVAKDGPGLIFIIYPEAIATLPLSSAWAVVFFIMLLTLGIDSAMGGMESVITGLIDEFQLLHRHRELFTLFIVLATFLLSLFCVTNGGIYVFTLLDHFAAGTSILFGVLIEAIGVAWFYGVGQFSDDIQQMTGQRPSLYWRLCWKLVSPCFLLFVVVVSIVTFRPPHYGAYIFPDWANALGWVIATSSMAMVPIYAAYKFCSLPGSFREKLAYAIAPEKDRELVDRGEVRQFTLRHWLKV
Chain of UniProt P08588 (whole entry, looked up): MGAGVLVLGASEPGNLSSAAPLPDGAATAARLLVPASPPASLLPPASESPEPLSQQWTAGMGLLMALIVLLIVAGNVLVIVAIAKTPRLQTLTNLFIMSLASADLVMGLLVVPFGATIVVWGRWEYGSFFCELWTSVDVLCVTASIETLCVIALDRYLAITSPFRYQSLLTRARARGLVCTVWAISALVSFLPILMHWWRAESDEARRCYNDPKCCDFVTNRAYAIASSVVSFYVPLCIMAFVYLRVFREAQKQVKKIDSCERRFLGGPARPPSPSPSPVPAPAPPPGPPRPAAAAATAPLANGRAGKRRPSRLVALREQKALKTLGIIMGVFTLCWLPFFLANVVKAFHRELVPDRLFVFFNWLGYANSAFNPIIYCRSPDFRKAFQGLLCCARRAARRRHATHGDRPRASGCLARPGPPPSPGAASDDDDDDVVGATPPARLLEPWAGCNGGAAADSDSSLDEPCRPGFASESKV

Study 1 — target: Sox, HMG box (Pigoraptor chileana); technique: Spec-seq; molecule type: double-stranded DNA, one strand shown; medium: in vitro; tested at: not given; notes: whole probe, mean of replicates; relative to: not given; reading: lower = stronger binding; shared flanks, not repeated: GAGTCGTCTCGTCAGCAC … CCGTAGAGCACTCAGGTC
Residues (chain): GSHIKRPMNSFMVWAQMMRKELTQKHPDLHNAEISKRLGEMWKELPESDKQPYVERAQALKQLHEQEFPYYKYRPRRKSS
Sequence	relative binding energy [ln ratio]
CATACCC	0.52
CATAGCC	-0.0375
CATGGGA	0.531
ATGTGTT	-0.557
GTACGTT	0.911
AACCGTT	-0.197
GGGAGTT	1.47
CGGGGTT	1.64

Study 2 — technique: RNA Bind-n-Seq; molecule type: RNA; medium: in vitro; tested at: 200 nM; notes: whole 134-nt RNA, ends assumed; added: 150 mM KCl; relative to: input library; reading: higher = stronger binding
Target: Ras GTPase-activating protein-binding protein 1, full length (G3BP1, Homo sapiens, UniProt Q13283)
Chain of UniProt Q13283 (whole entry, looked up): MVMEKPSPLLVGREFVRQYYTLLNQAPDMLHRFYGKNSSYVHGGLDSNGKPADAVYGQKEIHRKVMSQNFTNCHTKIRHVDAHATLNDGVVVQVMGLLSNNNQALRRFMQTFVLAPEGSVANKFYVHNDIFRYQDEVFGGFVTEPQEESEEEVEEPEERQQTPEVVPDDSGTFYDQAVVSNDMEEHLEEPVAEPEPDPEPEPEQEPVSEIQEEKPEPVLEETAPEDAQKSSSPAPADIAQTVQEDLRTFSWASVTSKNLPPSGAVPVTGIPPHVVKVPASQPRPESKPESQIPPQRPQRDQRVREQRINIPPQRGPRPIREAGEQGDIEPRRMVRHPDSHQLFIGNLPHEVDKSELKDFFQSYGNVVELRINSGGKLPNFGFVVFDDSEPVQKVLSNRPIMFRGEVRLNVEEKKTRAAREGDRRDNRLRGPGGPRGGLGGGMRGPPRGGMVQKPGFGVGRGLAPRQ
Shared flanks, not repeated: GGGAGUUCUACAGUCCGACGAUC … UGGAAUUCUCGGGUGUCAAGG
Sequence	log2 enrichment
UCCUGUGCUACACAUCGUAUGUACCGAAUCGGGGAGGGGAAAAAGGGGAAAAAAAGGGGAAAGUAUUAUGUUACGCCGUUCGGAUCUGCA	0.54
AGUCCUGUGCUACACAUCGUAUGUACCGAAUCGGGCCCCCGGCCCCCGGGCCCCCGGGAAAGUAUUAUGUUACGCCGUUCGGAUCUGCAC	-0.928
UCCUGUGCUACACAUCGUAUGUACCGAAUCGGGGAAAAAGGGGAAAAAGGGGAAAAAGGGAAAGUAUUAUGUUACGCCGUUCGGAUCUGC	0.181
CAAGUCCUGUGCUACACAUCGUAUGUACCGAAUCGGUUUUGGGGUUUUGGUUUUGGAAAGUAUUAUGUUACGCCGUUCGGAUCUGCACUU	-0.926
AGUCCUGUGCUACACAUCGUAUGUACCGAAUCAAACCCAAAUUUUUUUAAACCCAAAAAAGUAUUAUGUUACGCCGUUCGGAUCUGCACU	-0.479
ACCAUGCAGGUGGGCAUCUUUGGGAAGUGGGGCAAAAAGGGGAUAGGGAGGGGGGUAACACUUUGGGAACAGGUGGUCCCAGGUCGUUUC	0.849
GUCCUGUGCUACACAUCGUAUGUACCGAAUCGGGGAAAGGGGUUUGGGGAAAAAGGGGAAAGUAUUAUGUUACGCCGUUCGGAUCUGCAC	0.519
UCAAGUCCUGUGCUACACAUCGUAUGUACCGAAUCGGCCCGGCCCGGGCCCGGGGAAAGUAUUAUGUUACGCCGUUCGGAUCUGCACUUC	-0.951

Study 3 — target: CCNA2, cyclin fold, Cln2 fusion (human); technique: yeast growth competition, sequencing; medium: yeast; notes: strong parent motif; relative to: not given; reading: higher = stronger binding; parent: viral docking peptide; KGVKRKLFAEDSS
Change	normalised enrichment score
KRVKRKLFAEDSS [G2R]	6.39
KGVKRKLFAEDGS [S12G]	5.99
KGVKRKLFAEDMS [S12M]	5.92
KGVKRALFAEDSS [K6A]	6.05
KGVKRKLFAESSS [D11S]	6.34
KGVKRKLTAEDSS [F8T]	0.424
KKVKRKLFAEDSS [G2K]	6.63
KGVKQKLFAEDSS [R5Q]	2.79
KGVKRKLFAEDCS [S12C]	6.28
KGVKRKLFPEDSS [A9P]	6.12
KGVKRKLFAEHSS [D11H]	6.06
KGVKRFLFAEDSS [K6F]	1.5
KGVHRKLFAEDSS [K4H]	4.91
KGVKRKLFAETSS [D11T]	6.35
KGVKRNLFAEDSS [K6N]	5.16
KGVKRGLFAEDSS [K6G]	3.24
KGVTRKLFAEDSS [K4T]	3.75
KGVKRKLFFEDSS [A9F]	6.31
KGVKRKLNAEDSS [F8N]	-0.0325
KGVKRKIFAEDSS [L7I]	2.5
KGVKRVLFAEDSS [K6V]	5.42
KGVKRKLFAEDFS [S12F]	6.46
KGVKRKLFEEDSS [A9E]	6.15
KGVKRKLFAEDLS [S12L]	6.45
KGVKRKLFACDSS [E10C]	5.65

Study 4 — technique: protein-binding microarray; molecule type: double-stranded DNA, one strand shown; medium: in vitro; tested at: 250 nM; notes: 60-bp whole probe; added: salmon DNA 0.4 mg/ml; relative to: random background probes; reading: higher = stronger binding; shared flanks, not repeated: GCCTAGCAC … GTCTTGATTCGCTTGACGCTGCTG
Target: Interferon regulatory factor 5, full length, phosphomimetic (IRF5, Homo sapiens, UniProt Q13568-2, residues 1-514, K96S/S451D/S453D/S456D/S462D)
Sequence	log fluorescence [z-score]
AGTGAATTAGGTTTCACTTTGTGCTAG	4.37
ATTTTTATCAAATGTGGGATTGTGCTA	0.768
TTAGGTTTCCTACTGCTGTAGTGCTAG	0.43
GACGGTGTCGGGTTTCGGGACGTGCTA	1.53
TCACTTTTGGCTTTCCTACTGTGCTAG	1.9
TGGGCACACTTTGGGTCCTGGTGCTAG	-0.797
TCATTTTTGCTTACGATGCAGTGCTAG	1.21
GTAGGTTCCCTTTTCCTTTAGTGCTAG	0.379

Mixed results
Compound	target	assay	endpoint	result
Cc1[nH]c2ccc(O)cc2c1CCN	ADRB1 (Homo sapiens, UniProt P08588)	antagonist	IC50	≥ 100 µM
N#CN1CC[C@@H](C(=O)Nc2nc3c(s2)CN(C(=O)CN=[N+]=[N-])CC3)C1	SLC6A3 (Homo sapiens, UniProt Q01959)	binding, radioligand binding	Ki	> 10 µM

A few entries again (study 2):
Sequence	log2 enrichment
UCCUGUGCUACACAUCGUAUGUACCGAAUCGGGGAGGGGAAAAAGGGGAAAAAAAGGGGAAAGUAUUAUGUUACGCCGUUCGGAUCUGCA	0.54
AGUCCUGUGCUACACAUCGUAUGUACCGAAUCGGGCCCCCGGCCCCCGGGCCCCCGGGAAAGUAUUAUGUUACGCCGUUCGGAUCUGCAC	-0.928
UCCUGUGCUACACAUCGUAUGUACCGAAUCGGGGAAAAAGGGGAAAAAGGGGAAAAAGGGAAAGUAUUAUGUUACGCCGUUCGGAUCUGC	0.181
CAAGUCCUGUGCUACACAUCGUAUGUACCGAAUCGGUUUUGGGGUUUUGGUUUUGGAAAGUAUUAUGUUACGCCGUUCGGAUCUGCACUU	-0.926
AGUCCUGUGCUACACAUCGUAUGUACCGAAUCAAACCCAAAUUUUUUUAAACCCAAAAAAGUAUUAUGUUACGCCGUUCGGAUCUGCACU	-0.479
ACCAUGCAGGUGGGCAUCUUUGGGAAGUGGGGCAAAAAGGGGAUAGGGAGGGGGGUAACACUUUGGGAACAGGUGGUCCCAGGUCGUUUC	0.849
GUCCUGUGCUACACAUCGUAUGUACCGAAUCGGGGAAAGGGGUUUGGGGAAAAAGGGGAAAGUAUUAUGUUACGCCGUUCGGAUCUGCAC	0.519
